Results of several laboratories.
Lines come from different studies, so protocols differ.

| Compound | matrix | tested at | pH | temperature | setting | absorption maximum [nm] |
| --- | --- | --- | --- | --- | --- | --- |
| O=c1cc(/C=C/c2ccc(N(c3ccccc3)c3ccccc3)cc2)oc(/C=C/c2ccc(N(c3ccccc3)c3ccccc3)cc2)c1 | acetonitrile | 10 µM | – | 298 K | – | 409 |
| CC1(C)C(/C=C/C2=C(Cl)C(=C/C=C3/N(CCCCCC(=O)O)c4ccccc4C3(C)C)/C[N+](C)(C)C2)=[N+](CCCCCC(=O)O)c2ccccc21 | water | – | – | – | – | 743 |
| CCN(CC)c1ccc2c(c1)O[B-]1(c3ccccc3C#N)OC(=O)C(c3ccccc3)=N[N+]1=C2 (stereo not shown) | toluene | – | – | – | – | 472 |
| COC(=O)c1ccccc1-c1c2ccc(=[N+](C)C)cc-2oc2c1ccc1cccc(O)c12 | 12.5 mM aqueous NaOH | – | pH 12.1 | – | 10% DMSO | 632 |
| O=c1cc(/C=C/c2ccc(N3CCCC3)cc2)oc(/C=C/c2ccc(N3CCCC3)cc2)c1 | acetonitrile/water 1:19 v/v | 10 µM | – | 298 K | aggregate nanoparticle suspension | 511 |
| CCN(CC)c1ccc2c(c1)O[B-]1(c3ccccc3)OC(=O)C(c3ccccc3)=N[N+]1=C2C (stereo not shown) | toluene | – | – | – | – | 470 |
| CCCCN1C(=O)c2cccc3c(NCCCN4CCOCC4)ccc(c23)C1=O | dioxane | – | – | – | – | 426 |
| CCC1=[N+]2N=C(/C=C/C=C/c3ccc(C(F)(F)F)cc3)C(=O)O[B-]2(c2ccccc2)Oc2cc(N(CC)CC)ccc21 (stereo not shown) | toluene | – | – | – | – | 515 |
| CN(C)c1ccc(/C=C/c2cc(=O)cc(/C=C/c3ccc(N(C)C)cc3)o2)cc1 | acetonitrile/water 1:19 v/v | 10 µM | – | 298 K | aggregate nanoparticle suspension | 535 |
| CCCCN1C(=O)c2cccc3c(NCCCCCCCCCCN4CCOCC4)ccc(c23)C1=O | water | – | pH 6.0 | – | – | 452 |
| C=Cc1ccccc1[B-]12OC(=O)C(c3ccccc3)=N[N+]1=C(C)c1ccc(N(CC)CC)cc1O2 (stereo not shown) | toluene | – | – | – | – | 470 |
| COC(=O)c1ccccc1-c1c2ccc(=O)cc-2oc2c1ccc1cccc(O)c12 | 12.5 mM aqueous NaOH | – | pH 12.1 | – | 10% DMSO | 599 |
| O=c1cc(/C=C/c2ccc(N3CCOCC3)cc2)oc(/C=C/c2ccc(N3CCOCC3)cc2)c1 | acetonitrile/water 1:19 v/v | 10 µM | – | 298 K | aggregate nanoparticle suspension | 376 |
| CCC1=[N+]2N=C(/C=C/C=C/c3ccccc3)C(=O)O[B-]2(c2ccccc2)Oc2cc(N(CC)CC)ccc21 (stereo not shown) | toluene | – | – | – | – | 513 |
| CN1CCN(c2ccc(/C=C/c3cc(=O)cc(/C=C/c4ccc(N5CCN(C)CC5)cc4)o3)cc2)CC1 | acetonitrile/water 1:19 v/v | 10 µM | – | 298 K | aggregate nanoparticle suspension | 401 |
| CCCCN1C(=O)c2cccc3c(NCCN4CCOCC4)ccc(c23)C1=O | DMSO | – | – | – | – | 443 |
